Published values collected from several papers.
Every numbered part comes from another study and shows a few of its results, in no order.
UniProt Q96GD4, sequence (whole entry, looked up): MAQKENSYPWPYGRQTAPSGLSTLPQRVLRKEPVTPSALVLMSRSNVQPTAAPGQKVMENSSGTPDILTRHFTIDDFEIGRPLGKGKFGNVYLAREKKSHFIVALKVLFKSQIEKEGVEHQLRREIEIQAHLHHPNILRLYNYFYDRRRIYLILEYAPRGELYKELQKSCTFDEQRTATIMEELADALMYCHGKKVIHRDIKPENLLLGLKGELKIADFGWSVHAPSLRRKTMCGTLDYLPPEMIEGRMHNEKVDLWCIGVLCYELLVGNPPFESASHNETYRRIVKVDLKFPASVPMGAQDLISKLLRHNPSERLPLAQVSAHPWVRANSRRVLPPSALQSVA
UniProt O60331, sequence (whole entry, looked up): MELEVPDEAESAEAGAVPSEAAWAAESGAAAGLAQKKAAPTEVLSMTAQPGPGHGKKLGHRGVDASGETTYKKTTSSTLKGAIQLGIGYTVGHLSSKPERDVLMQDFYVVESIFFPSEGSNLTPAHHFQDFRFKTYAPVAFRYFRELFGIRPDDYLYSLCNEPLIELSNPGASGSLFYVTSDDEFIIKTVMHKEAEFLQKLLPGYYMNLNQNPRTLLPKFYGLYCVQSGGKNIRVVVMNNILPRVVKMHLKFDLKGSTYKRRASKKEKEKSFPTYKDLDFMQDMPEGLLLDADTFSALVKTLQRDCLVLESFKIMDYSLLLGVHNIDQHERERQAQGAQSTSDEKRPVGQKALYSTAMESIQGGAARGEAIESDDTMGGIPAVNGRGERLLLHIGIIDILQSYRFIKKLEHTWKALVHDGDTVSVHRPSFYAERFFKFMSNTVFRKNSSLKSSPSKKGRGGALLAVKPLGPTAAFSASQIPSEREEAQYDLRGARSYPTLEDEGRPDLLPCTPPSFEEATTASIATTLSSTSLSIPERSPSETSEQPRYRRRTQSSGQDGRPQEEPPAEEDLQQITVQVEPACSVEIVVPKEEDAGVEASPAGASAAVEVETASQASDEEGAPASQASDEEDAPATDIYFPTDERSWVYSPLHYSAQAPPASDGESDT
UniProt P49760, sequence (whole entry, looked up): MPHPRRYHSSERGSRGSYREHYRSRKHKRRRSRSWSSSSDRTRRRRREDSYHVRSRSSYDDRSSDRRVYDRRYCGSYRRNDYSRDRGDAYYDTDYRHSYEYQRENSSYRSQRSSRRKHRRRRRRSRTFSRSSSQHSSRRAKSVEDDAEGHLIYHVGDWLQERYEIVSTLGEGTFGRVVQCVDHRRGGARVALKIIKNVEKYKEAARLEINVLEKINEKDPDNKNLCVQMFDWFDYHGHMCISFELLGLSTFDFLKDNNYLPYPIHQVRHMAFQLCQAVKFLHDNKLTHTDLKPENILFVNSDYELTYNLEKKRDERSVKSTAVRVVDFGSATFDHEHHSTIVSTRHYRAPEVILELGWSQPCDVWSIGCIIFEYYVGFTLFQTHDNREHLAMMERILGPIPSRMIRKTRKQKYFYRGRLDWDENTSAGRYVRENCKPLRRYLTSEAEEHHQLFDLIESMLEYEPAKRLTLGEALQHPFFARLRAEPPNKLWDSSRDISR
UniProt Q13164, sequence (whole entry, looked up): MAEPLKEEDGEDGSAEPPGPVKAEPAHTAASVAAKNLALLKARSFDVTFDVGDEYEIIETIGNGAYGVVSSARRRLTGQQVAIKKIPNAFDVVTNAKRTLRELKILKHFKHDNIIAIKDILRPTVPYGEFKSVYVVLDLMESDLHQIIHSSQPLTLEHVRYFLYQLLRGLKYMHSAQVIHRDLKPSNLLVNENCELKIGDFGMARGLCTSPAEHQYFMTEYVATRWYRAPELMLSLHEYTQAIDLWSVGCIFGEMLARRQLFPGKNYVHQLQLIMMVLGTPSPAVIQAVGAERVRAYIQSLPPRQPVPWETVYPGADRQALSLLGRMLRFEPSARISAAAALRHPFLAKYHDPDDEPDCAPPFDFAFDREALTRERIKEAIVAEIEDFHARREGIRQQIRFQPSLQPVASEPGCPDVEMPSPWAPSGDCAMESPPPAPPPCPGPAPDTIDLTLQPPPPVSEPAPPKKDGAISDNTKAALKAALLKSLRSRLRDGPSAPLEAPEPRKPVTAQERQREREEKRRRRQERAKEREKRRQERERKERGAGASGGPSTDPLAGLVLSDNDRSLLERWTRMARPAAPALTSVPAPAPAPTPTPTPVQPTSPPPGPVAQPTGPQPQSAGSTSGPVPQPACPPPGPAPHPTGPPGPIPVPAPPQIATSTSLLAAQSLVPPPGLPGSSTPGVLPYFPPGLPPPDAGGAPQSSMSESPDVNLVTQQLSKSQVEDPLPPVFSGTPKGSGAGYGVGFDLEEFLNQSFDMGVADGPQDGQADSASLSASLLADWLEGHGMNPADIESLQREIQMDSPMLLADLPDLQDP
UniProt Q8N752, sequence (whole entry, looked up): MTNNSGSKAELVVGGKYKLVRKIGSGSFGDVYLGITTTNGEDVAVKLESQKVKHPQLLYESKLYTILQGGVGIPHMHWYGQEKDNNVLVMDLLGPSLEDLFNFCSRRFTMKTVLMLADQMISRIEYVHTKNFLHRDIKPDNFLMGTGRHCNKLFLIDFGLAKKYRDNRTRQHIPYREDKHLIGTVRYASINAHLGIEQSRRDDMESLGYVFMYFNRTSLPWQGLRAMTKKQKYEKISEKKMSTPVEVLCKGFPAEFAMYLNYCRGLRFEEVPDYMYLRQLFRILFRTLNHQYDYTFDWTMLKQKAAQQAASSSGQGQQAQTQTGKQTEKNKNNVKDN
UniProt Q9H2X6, sequence (whole entry, looked up): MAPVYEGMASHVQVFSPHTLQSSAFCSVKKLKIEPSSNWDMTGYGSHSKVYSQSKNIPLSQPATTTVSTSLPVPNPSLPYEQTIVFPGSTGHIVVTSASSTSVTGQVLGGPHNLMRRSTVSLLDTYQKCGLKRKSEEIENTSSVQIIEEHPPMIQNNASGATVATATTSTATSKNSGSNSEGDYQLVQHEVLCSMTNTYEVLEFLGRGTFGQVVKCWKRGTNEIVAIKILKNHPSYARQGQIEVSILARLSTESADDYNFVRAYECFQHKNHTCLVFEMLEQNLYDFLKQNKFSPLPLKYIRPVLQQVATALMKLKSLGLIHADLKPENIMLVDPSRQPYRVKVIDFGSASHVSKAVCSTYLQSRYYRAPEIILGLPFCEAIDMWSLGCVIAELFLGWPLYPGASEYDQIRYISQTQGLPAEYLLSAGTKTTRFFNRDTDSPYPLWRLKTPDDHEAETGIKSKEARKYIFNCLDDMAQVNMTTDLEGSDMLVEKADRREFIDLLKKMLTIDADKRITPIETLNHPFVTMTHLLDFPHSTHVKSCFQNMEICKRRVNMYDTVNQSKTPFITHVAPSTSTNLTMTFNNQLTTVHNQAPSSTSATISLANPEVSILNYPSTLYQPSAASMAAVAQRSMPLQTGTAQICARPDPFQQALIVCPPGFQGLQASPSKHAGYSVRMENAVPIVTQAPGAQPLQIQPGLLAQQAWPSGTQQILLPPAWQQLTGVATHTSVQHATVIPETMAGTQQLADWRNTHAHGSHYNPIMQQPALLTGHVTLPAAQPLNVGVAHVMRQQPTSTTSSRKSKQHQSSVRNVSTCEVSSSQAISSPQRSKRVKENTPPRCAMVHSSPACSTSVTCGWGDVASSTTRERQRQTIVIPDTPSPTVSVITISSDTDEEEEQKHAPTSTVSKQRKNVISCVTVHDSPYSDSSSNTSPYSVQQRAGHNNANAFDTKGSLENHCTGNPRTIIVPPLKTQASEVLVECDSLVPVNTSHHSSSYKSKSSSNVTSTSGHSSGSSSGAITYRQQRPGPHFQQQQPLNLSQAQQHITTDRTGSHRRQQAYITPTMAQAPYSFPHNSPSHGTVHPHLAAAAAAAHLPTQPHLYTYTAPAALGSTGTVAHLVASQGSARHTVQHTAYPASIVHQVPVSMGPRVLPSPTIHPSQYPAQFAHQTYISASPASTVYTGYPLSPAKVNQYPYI

Series 1
Target: Death-associated protein kinase 2 (DAPK2, Homo sapiens, UniProt Q9UIK4)
UniProt Q9UIK4, sequence (whole entry, looked up): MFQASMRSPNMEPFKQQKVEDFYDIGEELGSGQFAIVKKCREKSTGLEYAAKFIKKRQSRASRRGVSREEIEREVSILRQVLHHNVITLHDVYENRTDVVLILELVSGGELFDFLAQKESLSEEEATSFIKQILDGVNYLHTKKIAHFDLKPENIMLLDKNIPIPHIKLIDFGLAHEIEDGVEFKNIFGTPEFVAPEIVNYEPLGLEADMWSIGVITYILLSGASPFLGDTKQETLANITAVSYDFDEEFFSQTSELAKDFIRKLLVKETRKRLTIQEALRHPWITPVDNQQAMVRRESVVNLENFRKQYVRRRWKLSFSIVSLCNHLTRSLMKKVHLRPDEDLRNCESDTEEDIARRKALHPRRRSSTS
Read-out: enzyme activity
Action: inhibitor
Tested at: 0.5 µM
Reference: control
| SMILES | remaining activity [%] |
| --- | --- |
| Nc1ccc2ncnc(NCCc3ccc(Oc4ccccc4)cc3)c2c1 | 80.4 |
| CCOC(=O)c1c(C)[nH]c(/C=C2\C(=O)Nc3ccccc32)c1C | 96.3 |
| Cc1cccc(-c2[nH]c(C(C)(C)C)nc2-c2ccc3c(c2)OCO3)n1 | 102 |
| COc1cc2ncnc(Nc3ccc(F)c(Cl)c3)c2cc1OCCCN1CCOCC1 | 93.2 |
| CC(C)[C@H](CO)Nc1nc(Nc2cc(N)cc(Cl)c2)c2ncn(C(C)C)c2n1 | 101 |
| O=C1NC(=O)C(c2cn(CCCn3ccnc3)c3ccccc23)=C1Nc1ccccc1 | 104 |
| O=C(CCCc1ccc(-c2ccccc2F)cc1)Nc1ccc(O)cc1 | 106 |
| N#CC(C#N)=C(N)/C(C#N)=C/c1ccc(O)cc1 | 95.7 |
| Oc1ccc(-c2nc(-c3ccncc3)c(-c3ccc(F)cc3)[nH]2)cc1 | 96.8 |
| CO[C@H]1C[C@@H]2CC[C@@H](C)[C@@](O)(O2)C(=O)C(=O)N2CCCC[C@H]2C(=O)O[C@H]([C@H](C)C[C@@H]2CC[C@@H](O)[C@H](OC)C2)CC(=O)[C@H](C)/C=C(\C)[C@@H](O)[C@@H](OC)C(=O)[C@H](C)C[C@H](C)/C=C/C=C/C=C/1C | 112 |
| Cc1ccc(NC(=O)c2ccc(CN3CCN(C)CC3)cc2)cc1Nc1nc(-c2cccnc2)cs1 | 104 |
| COc1cc2ncnc(Nc3ccc(Oc4ccccc4)cc3)c2cc1OC | 102 |
| CN(C)c1ccc(C=C2C(=O)Nc3ccccc32)cc1 | 105 |
| O=C(Nc1cccc(Nc2cc(Nc3cccc(C(F)(F)F)c3)ncn2)c1)C1CC1 | 99 |
| Cn1sc(=O)n(Cc2ccccc2)c1=O | 94 |
| COc1ccc(OC)c2c(=S)c3ccccc3[nH]c12 | 94 |

Series 2
SMILES: CNCc1ccccc1-c1csc([C@H](C)Nc2nc(C)nc3cc(OC)c(OC)cc23)c1
Read-out: cell-free assay
Method: competition with immobilised ligand
Tested at: 1 µM
| target | remaining binding [%] |
| --- | --- |
| Macrophage colony-stimulating factor 1 receptor (CSF1R, Homo sapiens, UniProt P07333) | 91 |
| Cyclin-dependent kinase 15 (CDK15, Homo sapiens, UniProt Q96Q40) | 100 |
| Casein kinase I isoform alpha-like (CSNK1A1L, Homo sapiens, UniProt Q8N752) | 100 |
| Mitogen-activated protein kinase 7 (MAPK7, Homo sapiens, UniProt Q13164) | 100 |
| Homeodomain-interacting protein kinase 2 (HIPK2, Homo sapiens, UniProt Q9H2X6) | 76 |
| Aurora kinase B (AURKB, Homo sapiens, UniProt Q96GD4) | 99 |
| Myosin-IIIb (MYO3B, Homo sapiens, UniProt Q8WXR4) | 87 |
| Dual specificity protein kinase CLK2 (CLK2, Homo sapiens, UniProt P49760) | 100 |
| Phosphatidylinositol 4-phosphate 5-kinase type-1 gamma (PIP5K1C, Homo sapiens, UniProt O60331) | 100 |

Series 3
Target: Calcium/calmodulin-dependent protein kinase type II subunit alpha (CAMK2A, Homo sapiens, UniProt Q9UQM7)
UniProt Q9UQM7, sequence (whole entry, looked up): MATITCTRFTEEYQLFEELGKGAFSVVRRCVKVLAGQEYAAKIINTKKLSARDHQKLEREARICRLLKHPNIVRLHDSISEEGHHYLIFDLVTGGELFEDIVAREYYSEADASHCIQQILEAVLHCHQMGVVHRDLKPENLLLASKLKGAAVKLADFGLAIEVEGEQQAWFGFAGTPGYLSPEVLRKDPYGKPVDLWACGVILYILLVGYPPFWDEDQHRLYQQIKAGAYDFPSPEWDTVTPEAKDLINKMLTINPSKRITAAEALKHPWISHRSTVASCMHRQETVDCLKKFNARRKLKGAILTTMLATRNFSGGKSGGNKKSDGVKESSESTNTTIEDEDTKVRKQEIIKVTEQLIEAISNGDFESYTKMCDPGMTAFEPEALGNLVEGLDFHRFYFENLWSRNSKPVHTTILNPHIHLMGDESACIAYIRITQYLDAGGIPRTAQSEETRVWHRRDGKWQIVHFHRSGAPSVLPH
Read-out: enzyme activity
Action: inhibitor
Tested at: 10 µM
| SMILES | inhibition |
| --- | --- |
| C[C@H](CC(=O)C[C@@H](C)[C@H]1C[C@H](O)[C@@]2(C)C3=C(C(=O)C[C@]12C)[C@@]1(C)CCC(=O)C(C)(C)[C@@H]1C[C@@H]3O)C(=O)O | -41% |
| CC(C)=CC[C@@H](OC(=O)C(C)C)C1=CC(=O)c2c(O)ccc(O)c2C1=O | 9% |
| O=c1c(O[C@@H]2OC[C@H](O)[C@H](O)[C@H]2O)c(-c2ccc(O)c(O)c2)oc2cc(O)cc(O)c12 | -80% |
| O=c1ccc2ccccc2o1 | -7% |
| C[C@H]1CC[C@@H]2N(C1)C[C@H]1[C@@H]3C[C@H]4[C@@H](CC(=O)[C@H]5C[C@@H](O[C@@H]6O[C@H](CO)[C@@H](O)[C@H](O)[C@H]6O)CC[C@@]54C)[C@@H]3CC[C@@H]1[C@]2(C)O | 13% |
| CCCC(N)C(=O)O (racemic) | -13% |
| CCCCC/C=C\C/C=C\CCCCCCCC(=O)OCC(O)CO (stereo not drawn) | 12% |
| O=C(O)Cc1cccc2ccccc12 | 4% |

Series 4
Cell line: Huh-7
Tested at: 10 µM
Time: 24 h
| SMILES | viability [%] |
| --- | --- |
| CN1CCN(CCCN2c3ccccc3Sc3ccc(C(F)(F)F)cc32)CC1 | 94.3 |
| C[C@]12C=CC(=O)C=C1CC[C@@H]1[C@@H]2[C@@H](O)C[C@@]2(C)[C@H]1CC[C@]2(O)C(=O)COP(=O)(O)O | 93.9 |
| O=c1[nH]c(=O)n([C@H]2C[C@H](O)[C@@H](CO)O2)cc1F | 54 |
| CCCCC1C(=O)N(c2ccccc2)N(c2ccccc2)C1=O | 96.7 |
| CC1(C)S[C@@H]2[C@H](NC(=O)C(C(=O)O)c3ccccc3)C(=O)N2[C@H]1C(=O)O (stereo partly drawn) | 100 |
| Cc1cc(C)nc(NS(=O)(=O)c2ccc(N)cc2)n1 | 103 |
| COC1=CC(=O)C[C@@H](C)[C@]12Oc1c(Cl)c(OC)cc(OC)c1C2=O | 93.3 |
| CCN1CCN(C(=O)N[C@@H](C(=O)N[C@@H]2C(=O)N3C(C(=O)O)=C(CSc4nnnn4C)CS[C@H]23)c2ccc(O)cc2)C(=O)C1=O | 100 |
| CCCCC1C(=O)N(c2ccccc2)N(c2ccc(O)cc2)C1=O (stereo not drawn) | 84.9 |
| Cc1ccnc(NS(=O)(=O)c2ccc(N)cc2)n1 | 97.1 |
| NC(=O)c1ccccc1O | 103 |
| CCCCC1=NC2(CCCC2)C(=O)N1Cc1ccc(-c2ccccc2-c2nnn[nH]2)cc1 | 96.3 |
